# Measured values pooled from the literature.
# ± marks the error that the study gave.
Compound,assay,test system,conditions,scale,endpoint,result
NCCCC(=O)OCC(=O)c1ccc(O)c(C(F)(F)F)c1,LC-MS/MS,1-octanol,concentration not given,,photolysis quantum yield,0.1
C=C[C@@H]1C[C@]1(NC(=O)[C@@H]1C[C@@H](Oc2cc(-c3ccccc3)nc3cc(OC)ccc23)CN1C(=O)[C@@H](NC(=O)OC(C)(C)C)C(C)(C)C)C(=O)NS(=O)(=O)C1CC1,,"rat, liver and plasma",8 h,relative to: liver over plasma,liver to plasma ratio,150 fold
COc1ccc(-c2csc(N/N=C(\C)c3cc(O)cc(O)c3)n2)cc1,LC-MS/MS,rat plasma,"1000 ng/mL, 5 h, 25 °C, bench-top storage",,concentration after storage,1060 ng/mL
Cc1ccc(OCC(=O)N(Cc2cccs2)c2ccn[nH]2)cc1,,"male beagle dog, plasma","intravenous, 1 mg/kg, single dose",,clearance,18.4 mL/min/kg
C[C@H](NC(=O)COC(=O)[C@H](C)NC(=O)CO)C(=O)O,,water,"pH 5, 50 °C",,depolymerization half-life,2.91 h
COC(=O)C(c1ccccc1Cl)N1CCC(SCC(=O)c2cccc(OC)c2)C(=CC(=O)O)C1 (mixture of isomers),HPLC-MS/MS,feline EDTA plasma,"100 ng/mL, 12 h, -20 °C, storage stability",,deviation from nominal,6%
CC[C@H](C)[C@H](NC(=O)[C@H](CC(C)C)NC(=O)[C@H](Cc1c[nH]c2ccccc12)NC(=O)[C@H](C)NC(=O)[C@@H](NC(=O)[C@H](Cc1ccccc1)NC(=O)[C@H](CC(=O)O)NC(=O)[C@H](CCCNC(=N)N)NC(=O)[C@H](C)NC(=O)[C@H](C)NC(=O)[C@H](CC(C)C)NC(=O)[C@H](C)NC(=O)[C@H](CC(=O)O)NC(=O)[C@H](CC(C)C)NC(=O)[C@@H](NC(=O)[C@@H](NC(=O)[C@H](C)NC(=O)[C@H](CC(C)C)NC(=O)[C@H](CCC(=O)O)NC(=O)[C@H](CO)NC(=O)[C@H](CO)NC(=O)[C@H](Cc1ccccc1)NC(=O)[C@@H](NC(=O)CNC(=O)[C@H](CCC(=O)O)NC(=O)CNC(=O)[C@@H](N)Cc1c[nH]cn1)[C@@H](C)O)[C@@H](C)O)[C@@H](C)CC)[C@@H](C)CC)C(=O)N[C@@H](C)C(=O)N[C@H](C(=O)N[C@@H](CCCCN)C(=O)N[C@H](C(=O)N[C@H](C(=O)N[C@@H](CC(=O)O)C(=O)N[C@@H](CCCCN)C(=O)O)[C@@H](C)O)[C@@H](C)CC)[C@@H](C)O,immunoaffinity LC-MS/MS,"healthy human subjects, plasma","intravenous infusion, 1 mg single dose, infused over 15 min",,tmax,1.5 h
CCCC[C@H](NC(=O)CNC(=O)CNC(=O)CN1CCN(CC(=O)O)CCN(CC(=O)O)CC1)C(=O)N[C@H]1CC(=O)NCCCC[C@@H](C(N)=O)NC(=O)[C@H](Cc2c[nH]c3ccccc23)NC(=O)[C@H](CCCNC(=N)N)NC(=O)[C@@H](Cc2ccccc2)NC(=O)[C@H](Cc2c[nH]cn2)NC1=O [copper-64 labelled],,"female C57 mouse, B16/F1 melanoma, kidneys","intravenous, 0.037 MBq, 4 h",,tissue uptake,3.53 ± 0.57 %ID/g
C=CC(=O)Nc1cc(Nc2nccc(-c3cn(C4CC4)c4ccccc34)n2)c(OC)cc1N(C)CCNC,,"healthy Chinese male human, plasma","oral, 110 mg almonertinib, metabolite, [14C] single dose",,Vd/F,5960 ± 724 L
NCC(=O)N1CCC[C@H]1C(=O)N1C[C@H](O)C[C@H]1C(=O)O,potentiometric titration,,"40 °C, together with: Fe(III)",,log beta,14.2
O=C([O-])c1cccc(CN(CCN(Cc2cn(Cc3ccccc3)nn2)Cc2cccc(C(=O)[O-])n2)Cc2cn(Cc3ccccc3)nn2)n1.[64Cu+2],,"mouse, intestine","intravenous, 4 h",,tracer uptake,21.1 %ID/g
Cn1c(=O)oc2ccc(-c3ccc(CC(C#N)NC(=O)C4CNCCCO4)c(F)c3)cc21 (stereo not drawn),measured: blood bilirubin increased,human volunteers,"oral, dose not given",,treatment-emergent adverse event incidence,3.7%
COc1cc(NC(C)=O)c2c(c1O)-c1c(OC)c(OC)cc3c1C(C2)N(C)CC3 (stereo not drawn),,rat lung homogenate,"50 µg/mL, 4 h, room temperature, short-term storage",,remaining compound,101 ± 5.2%
COc1cc(N(C)CCN(C)C)c(NC(=O)CCSCC(N)C(=O)O)cc1Nc1nccc(-c2cn(C3CC3)c3ccccc23)n1 (stereo not drawn),radio-HPLC,"human, feces","96 to 240 h, sample holds 16.61% dose",relative to: dose,excreted amount,0.74%
COc1ccc(NC(=O)[C@H](CCCCN)NC(=O)c2cc(NC(=O)[C@H](CCCCN)NC(=O)c3cc(NC(=O)[C@H](CCCCN)NC(=O)c4cc(N)ccc4OC)ccc3OC)ccc2OC)cc1C(N)=O,UV-vis λmax shift,TBS,"pH 7.4, monomer-hexamer fit, together with: NaCl 0.15 M",,association midpoint concentration,0.08 mM
COc1cc([O-])c(C=NCCCN(C)CCN(C)CCCN=Cc2c([O-])cc(OC)cc2OC)c(OC)c1.[67Ga+3],,rat,"intravenous, 2 h",relative to: heart over lung,tissue uptake ratio,1.58 ± 0.08
CCCCCCCC[S+]([O-])CC(=O)C(F)(F)F (stereo not drawn),19F NMR,chloroform,,,hydrate fraction,90 to 96%
O=C(CCc1ccc(CNC(C(=O)OC2CCCC2)C2CCCCC2)cn1)NO (stereo not drawn),,"human, plasma","oral, 40 mg once daily, day 7, geometric mean",,AUC(tau),251 ng·h/mL
Cc1cc(O)cc(O)c1C(=O)c1c2c3c(c(O)cc(C)c3oc1=O)C(=O)c1c(O)cc(O)cc1-2,,Caco-2,"400 µM, 3 h, pH 7.4",,Papp B→A,0.008 ×10⁻⁶ cm/s
O=C(c1cccc(N=Nc2ccc(OC3CC(N4CCCCC4)C3)cc2)c1)N1CCCC1 (stereo not drawn),,"Tris-HCl buffer, 1% DMSO-d6","25 µM, pH 7.4, 20 ± 3 °C",,cis isomer thermal half-life,624 h
CC(C)[C@H]1c2ccc(F)cc2CC[C@@]1(CCN(C)CCCc1nc2ccccc2[nH]1)OC(=O)C1CC1,"cytotoxicity, AlamarBlue",human sperm,3 h,,IC50,62 ± 21 µM
NC(=O)/C=C/c1cccc(S(=O)(=O)Nc2ccccc2)c1,,"human, mild liver dysfunction, plasma","intravenous, 400 mg/m^2 belinostat, cycle 1 day -7, geometric mean",relative to: metabolite over belinostat,AUC(0-inf) metabolic ratio,0.783
[11CH3]c1ccc2nc(C3CCC3)n(-c3ccc4[nH]ncc4c3)c2n1,radio-HPLC,"Sprague-Dawley rat, brain",10 min,,intact parent fraction,98%
NC(=O)[C@H](Cc1ccccc1)N[11C](=O)OCc1ccccc1,,"male Wistar rats, brain supernatant","intravenous, 5 min",,intact tracer,> 99.9%
N=C(N)NCCC[C@@H]1NC(=O)[C@H](Cc2c[nH]c3ccccc23)NC(=O)[C@@H](CC2CCCCC2)NC(=O)[C@@H]2CCCN2C(=O)[C@@H](NC(=O)CCc2ccccc2)CCCNC1=O,,"C57BL/6J mice, plasma","oral, 1 mg/kg, two-compartment model",,absorption rate constant,2.24 h⁻¹
CC[C@@H](C)[C@@H](NC(=O)[C@@H](C)NC(=O)[C@@H](CCCCN)NC(=O)[C@@H](CC(C)C)NC(=O)[C@@H](CC(C)C)NC(=O)[C@H](NC(=O)[C@@H](CCCCN)NC(=O)[C@@H](CC(C)C)NC(=O)[C@@H](C)NC(=O)[C@@H](CCCCN)NC(=O)[C@@H](CCCCN)NC(=O)[C@@H](CCCCN)NC(=O)[C@@H](C)NC(=O)[C@@H](CCCCN)NC(=O)[C@@H](CO)NC(=O)[C@@H](Cc1ccccc1)NC(=O)[C@H](NC(=O)[C@@H](CCCCN)NC(=O)[C@@H](CC(C)C)NC(=O)[C@@H](Cc1ccccc1)NC(=O)[C@@H](CO)NC(=O)[C@@H](CCCCN)NC(=O)[C@@H](Cc1c[nH]c2ccccc12)NC(=O)[C@@H](CCCCN)NC(C)=O)[C@H](C)O)[C@H](C)O)C(=O)N[C@H](CO)C(=O)N[C@H](CCCCN)C(N)=O,circular dichroism,50% trifluoroethanol buffer,5 °C,relative to: reference peptide in TFE,helical content,96%
CC(C)c1cnc(-c2cc(Cl)ccc2F)cc1Nc1ccncc1C(=O)NC(CO)CO,"monotherapy, measured: nausea",human patients,"oral, dose not given, grade 5, phase I A",,patients with treatment-related adverse event,0%
O=c1nc(NO)ccn1[C@@H]1O[C@H](CO)[C@@H](O)[C@H]1O,"RT-PCR, measured: CYP2D3","rat, arthritis model, liver","oral, 80 mg/kg twice daily, 5 days",relative to: untreated arthritic rats,mRNA level,0.9 fold
CO[C@H]1/C=C/O[C@@]2(C)Oc3c(C)c(O)c4c(c3C2=O)C2=NC3(CCN(CC(C)C)CC3)NC2=C(NC(=O)/C(C)=C\C=C\[C@H](C)[C@H](O)[C@@H](C)[C@@H](O)[C@@H](C)[C@H](OC(=O)c2cccnc2)[C@@H]1C)C4=O,,"CD-1 mice, plasma",intravenous,relative to: metabolite AUC over parent AUC,deacylated metabolite exposure,0.2%
CC(C)[C@H](NC(=O)[C@@H]1CCCN1C(=O)[C@H](CCCNC(=N)N)NC(=O)[C@H](CS)NC(=O)[C@H](Cc1c[nH]c2ccccc12)NC(=O)[C@H](CCCNC(=N)N)NC(=O)[C@@H](Cc1ccccc1)NC(=O)[C@H](Cc1c[nH]cn1)NC(=O)[C@H](CCC(=O)O)NC(=O)[C@H](CS)NC(=O)[C@H](CS)NC(=O)CNC(=O)[C@@H]1CC(=O)N[C@@H](CCCNC(=N)N)C(=O)NCC(=O)N[C@@H](CC(=O)O)C(=O)N[C@H](Cc2ccc(O)cc2)C(=O)N1)C(N)=O [technetium-99m labelled],,"C57 mouse, female, B16/F1 melanoma","intravenous, 0.037 MBq, 0.5 h",relative to: tumour over blood,tumour to tissue ratio,1.86

# Repeated from above:
Compound,assay,test system,conditions,scale,endpoint,result
CC(C)[C@H](NC(=O)[C@@H]1CCCN1C(=O)[C@H](CCCNC(=N)N)NC(=O)[C@H](CS)NC(=O)[C@H](Cc1c[nH]c2ccccc12)NC(=O)[C@H](CCCNC(=N)N)NC(=O)[C@@H](Cc1ccccc1)NC(=O)[C@H](Cc1c[nH]cn1)NC(=O)[C@H](CCC(=O)O)NC(=O)[C@H](CS)NC(=O)[C@H](CS)NC(=O)CNC(=O)[C@@H]1CC(=O)N[C@@H](CCCNC(=N)N)C(=O)NCC(=O)N[C@@H](CC(=O)O)C(=O)N[C@H](Cc2ccc(O)cc2)C(=O)N1)C(N)=O [technetium-99m labelled],,"C57 mouse, female, B16/F1 melanoma","intravenous, 0.037 MBq, 0.5 h",relative to: tumour over blood,tumour to tissue ratio,1.86
CC[C@H](C)[C@H](NC(=O)[C@H](CC(C)C)NC(=O)[C@H](Cc1c[nH]c2ccccc12)NC(=O)[C@H](C)NC(=O)[C@@H](NC(=O)[C@H](Cc1ccccc1)NC(=O)[C@H](CC(=O)O)NC(=O)[C@H](CCCNC(=N)N)NC(=O)[C@H](C)NC(=O)[C@H](C)NC(=O)[C@H](CC(C)C)NC(=O)[C@H](C)NC(=O)[C@H](CC(=O)O)NC(=O)[C@H](CC(C)C)NC(=O)[C@@H](NC(=O)[C@@H](NC(=O)[C@H](C)NC(=O)[C@H](CC(C)C)NC(=O)[C@H](CCC(=O)O)NC(=O)[C@H](CO)NC(=O)[C@H](CO)NC(=O)[C@H](Cc1ccccc1)NC(=O)[C@@H](NC(=O)CNC(=O)[C@H](CCC(=O)O)NC(=O)CNC(=O)[C@@H](N)Cc1c[nH]cn1)[C@@H](C)O)[C@@H](C)O)[C@@H](C)CC)[C@@H](C)CC)C(=O)N[C@@H](C)C(=O)N[C@H](C(=O)N[C@@H](CCCCN)C(=O)N[C@H](C(=O)N[C@H](C(=O)N[C@@H](CC(=O)O)C(=O)N[C@@H](CCCCN)C(=O)O)[C@@H](C)O)[C@@H](C)CC)[C@@H](C)O,immunoaffinity LC-MS/MS,"healthy human subjects, plasma","intravenous infusion, 1 mg single dose, infused over 15 min",,tmax,1.5 h
